Results pooled from the literature.
Parts stem from different laboratories: compare values within a part only. Substitutions count along the parent as printed.

Sample 1
Target: ABI1, truncated, D143A, DHFR fusion (Arabidopsis thaliana)
Method: DHFR PCA, deep sequencing
Medium: yeast
Setting: methotrexate growth selection, single substitutions
Together with: (+)-ABA 0.39 µM
Relative to: wild-type fitted maximum
Direction: higher = stronger binding
Parent: PYL1, truncated, DHFR fusion (Arabidopsis thaliana); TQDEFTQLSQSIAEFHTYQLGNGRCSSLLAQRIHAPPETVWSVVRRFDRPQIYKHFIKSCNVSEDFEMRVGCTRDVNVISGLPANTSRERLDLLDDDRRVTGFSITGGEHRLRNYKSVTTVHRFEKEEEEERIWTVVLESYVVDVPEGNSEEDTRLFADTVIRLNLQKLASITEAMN; partner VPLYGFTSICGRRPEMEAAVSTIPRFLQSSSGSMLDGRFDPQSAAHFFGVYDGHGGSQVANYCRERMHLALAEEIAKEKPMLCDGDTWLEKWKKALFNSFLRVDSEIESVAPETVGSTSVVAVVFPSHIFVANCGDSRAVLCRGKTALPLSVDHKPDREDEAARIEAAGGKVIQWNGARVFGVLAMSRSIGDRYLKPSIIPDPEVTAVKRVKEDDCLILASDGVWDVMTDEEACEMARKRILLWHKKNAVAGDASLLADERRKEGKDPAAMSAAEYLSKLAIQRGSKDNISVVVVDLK
`R113F`: “relative binding score” 1.07%.
For `S9W`, “relative binding score” read 26.3%.
For `E130R`, “relative binding score” read 42.8%.
`R46E` — result for “relative binding score”: -4.86%.
`E64H` — result for “relative binding score”: 42.1%.
`I105T` — result for “relative binding score”: -2.92%.
For `S117E`, “relative binding score” read -14.2%.
`V137Q` — result for “relative binding score”: -10.1%.
`L20D`: “relative binding score” 43.1%.
`I33A`: “relative binding score” -0.879%.
`I52S`: “relative binding score” 23%.
For `S63D`, “relative binding score” read 49.2%.
`V43F`: “relative binding score” 6.21%.
For `E152Y`, “relative binding score” read 12.6%.
For `Q7V`, “relative binding score” read 42%.
`R24A` — result for “relative binding score”: 9.57%.
Under “relative binding score”, `H34W` is recorded as 24.6%.
For `V143I`, “relative binding score” read -4.8%.
Under “relative binding score”, `S26C` is recorded as 36.9%.
Under “relative binding score”, `T119I` is recorded as -9.64%.
For `H122L`, “relative binding score” read -2.19%.
`E147I` — result for “relative binding score”: 17.7%.

Sample 2
Target: RING finger protein unkempt homolog, zinc fingers 1-6, GST-SBP tag (UNK, Homo sapiens, UniProt Q9C0B0, residues 30-357)
Sequence of UniProt Q9C0B0 (30-357, looked up): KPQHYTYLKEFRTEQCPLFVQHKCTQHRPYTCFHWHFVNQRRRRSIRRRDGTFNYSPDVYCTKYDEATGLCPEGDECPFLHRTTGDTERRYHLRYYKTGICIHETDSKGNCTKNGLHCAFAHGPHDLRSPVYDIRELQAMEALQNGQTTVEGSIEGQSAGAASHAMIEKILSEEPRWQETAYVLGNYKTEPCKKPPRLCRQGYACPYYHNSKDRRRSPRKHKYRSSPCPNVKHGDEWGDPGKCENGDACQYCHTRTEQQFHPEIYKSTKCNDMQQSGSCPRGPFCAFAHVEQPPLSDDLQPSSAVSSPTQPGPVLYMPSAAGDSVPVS
Method: RNA Bind-n-Seq
Molecule type: RNA
Medium: in vitro
Concentration: not given
Setting: RNA with constant flanks, human-mouse chimeric sites, ends assumed
Relative to: input RNA pool
Direction: higher = stronger binding
Constant ends, left off below: GGGAGUUCUACAGUCCGACGAUC … CAACAGAGGAUUGAGCAUCA
For `CUGUGUGUGCUGAAUAAAUGGCUUGUAAAGAAGUUUUUCCAAGCUGUAACCCAUGCUUCCCUUAGAGUUGCUGCAAAAUGUUCUUCCUAUUGAUGUUUUUAUUUGUUAACUGAAGGUCUC`, the bound/input enrichment was 0.297 ratio.
`CGCUGGCCCAAGCUGAUGGACUCUGAUGGCCUCCAUCAAGGUAUUAUGUGUGCCUUCUCUUAGUCCCUGUUUUCGGGUCACAAAGCUUCUCAGUACUGUGGUUUGAAAGCACCAGCUUUG` gave a bound/input enrichment of 0.101 ratio.
For `ACCAUUUUCGCGGUUCAGGCUUUGUGUGUAGUUCACUCUAUGUAUUAAAUUAUUAUUCUGCUUAGCUUAUAAUAAGGAUAAUUGCAUUUAAAGAGGUUACUGAAUGUUACUCUGAAACUU`, the bound/input enrichment was 0.441 ratio.
`GUAGCUGGCCAUUAGGAAAUGCUGGUAAUUUCAGUCACUUGCUGAUGACUUCUGAUGUCCCAGCAAAUGUUGGCAUUGUUGACUGCUCUGUGAAGACUUCUGAGGACCCACGUCUAAGGU` gave a bound/input enrichment of 0.314 ratio.
`AUAUUUCAUAUUGCAAAGAUGUUUACAAGUAUUUUAAUUUAAGUUCAGUGAACUUUUUUGUAGCUGGGUUAAAUCUUUUUAUUUUAGGUAUGGCCUUUGGCAAAGAAACACUGUAUUUUU` has a bound/input enrichment of 0.684 ratio.
`GAGCCAAGCCGGCAGUUUGUAAAGGACUCAAUUCGGCUGGUUAAAAGAUGCACUAAACCCGACAGAAAAGAAUUCCAGAAGAUUGCCAUGGCUACAGCUAUAGGAUUUGCUAUCAUGGGA` gave a bound/input enrichment of 0.213 ratio.
With `GCUCUUGGCAAUGUAAUCAGCGCCUUGGGGGACAAGAGCAAGAGAGCCACCCAUGUCCCUUACAGAGACUCUAAGCUAACAAGACUAUUGCAGGAUUCCCUUGGGGGUAACAGCCAAACC` the bound/input enrichment was 0.177 ratio.
With `GCCACCAGAUCCCAGAAACAUGACUCUUGCUGCCUACAAAGAGAAGAUGAAGGAGCUCCCGCUGGUGUCCUUGUUCUGCUCUUGCUUCCUGGCCGAUCCCCUGAAUAAGUCGUCCUACAA` the bound/input enrichment was 0.17 ratio.

Sample 3
Target: Histone acetyltransferase KAT6A, winged helix 2, GST fusion (KAT6A, Homo sapiens, UniProt Q92794, residues 85-181)
Method: protein binding microarray
Molecule type: double-stranded DNA, one strand shown
Medium: in vitro
Concentration: not given
Setting: 8-mer, flanks averaged, mean of 2 arrays, mostly near background
Relative to: not given
Direction: higher = stronger binding
Target sequence (chain): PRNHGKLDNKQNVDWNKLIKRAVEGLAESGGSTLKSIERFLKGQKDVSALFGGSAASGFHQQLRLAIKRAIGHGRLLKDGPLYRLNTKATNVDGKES
With `CGTCTGAC` the E-score was -0.0938.
`TAAAAAGA` has an E-score of 0.053.
`CATCAGCA` has an E-score of -0.0551.
`CCGGAACA` has an E-score of 0.115.
The E-score of `ACACGGCC` is reported as 0.0285.
For `AGGCAAGC`, the E-score was -0.00979.
`ACGCAGCG` has an E-score of 0.0627.
`CACAATCC` gave an E-score of 0.0691.
With `AGCGTGCC` the E-score was 0.0484.
`GTCTGGTA` has an E-score of -0.0894.
For `AGCCCAGG`, the E-score was 0.0698.
For `AAGGGGGC`, the E-score was 0.0858.
`AAGCGTAG` has an E-score of -0.0158.
The E-score of `GCCCCGCC` is reported as 0.164.
For `CCATGAGG`, the E-score was -0.109.
For `ATTCGTGC`, the E-score was 0.0828.
`ATACGTTA` has an E-score of -0.0673.
With `TTCCTAAA` the E-score was 0.0447.

Sample 4
Target: RNA binding protein fox-1 homolog 2, RRM domain, GST-SBP tag (RBFOX2, Homo sapiens, UniProt O43251-10, residues 100-194)
Method: RNA Bind-n-Seq
Molecule type: RNA
Medium: in vitro
Concentration: 365 nM
Setting: natural RNA segment, single round, ends assumed
Relative to: no-protein control
Direction: higher = stronger binding
Constant ends, left off below: GGGAGUUCUACAGUCCGACGAUC … UGGAAUUCUCGGGUGCCAA
Target sequence (chain): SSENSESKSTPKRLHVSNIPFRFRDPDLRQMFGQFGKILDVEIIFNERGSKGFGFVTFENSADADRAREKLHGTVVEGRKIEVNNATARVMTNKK
Under “RBNS enrichment (R)”, `AGGUGACAUUUGUUCAUUCUCUAAUCCCAUCCUCUCACCCAUCCAUUUCCUCACUCAGUGGAGAUUUGCCAAAUGAAUAAACGACACCUUUGAGGCCCCAGGUGAAGCGG` is recorded as 0.497.
`CUAGGACAAGGAAUGCUUCUUGAUUCCAUAGCUCUGACUAUAAUGACCCAGGAGAGAGGUGCCCCUUGUGGGAGUUCCAUUCUGUGGCAUGCAACUGAGCAGGGUUAGGG` — result for “RBNS enrichment (R)”: 3.85.
Under “RBNS enrichment (R)”, `AAGUGCCUUAAUAGUAGGGUAAGUUGUUAAGAGUGGGGGAGAGCAGGCUGGCAGCUCUCCAGUCAGGAGGCAUAGUUUUUACUGAACAAUCAAAGCACUUGGACUCUUGC` is recorded as 0.659.
`GUGUACACUUUUUCUCUAAAAUAAACUUUUGUGGCUUUAGUGUCUUAGAAGGAGAGUCCUAACAUGAAAUGGUCAUCUCUUAGAUUUGGGAGGAAGGAAGCCACUGUUAA`: “RBNS enrichment (R)” 0.582.
`UUUGAAAUUGGGAAGAAGUGUGACAGGAUACAGUUGGGCUAAUUAUGCAAUAUUUCAUCUGUUUAAUUUUCUAACUCUGUAUUGUUCCUAAAGACGGAUGAAUGAGUCUC` — result for “RBNS enrichment (R)”: 0.89.
Under “RBNS enrichment (R)”, `CAAAGGGCCACUGACCUGGCAAGCAUUUACUUCUACUUCACCAAAGAUGCCCAGAGUGAUGGGUCAGCCCUUCUGCUCAAGCAGGCCGUGCCUGGCUGGUGCCAUUCAGA` is recorded as 0.428.
`AGCUAGCUGUCUAGGCAGGCCUUGCCUCGAGCAACGCCCCUGCCCAGCCUCUGUGACAGUGACUCCCUCUCCCCUUGUACAUACUCUCACACAGGUUCCCCUUGUACAUA`: “RBNS enrichment (R)” 0.464.
`CUUCAGUGAAUAUGUGACUAGUAAAGCUUAAAUAUGUUUGGAUCUAAUAGAGCUCAUGAAAUACUGUAACUUGGGGAUUGUAAAUGAAUGGAUACAAUAGGUUAAGGCCC`: “RBNS enrichment (R)” 3.13.
`CCUGUACAUACAUUGUAUAGGCCAUCUGUAAAUAUCCCAGAGAACAAUCACUAUUCUUAAGCACUUUGAAAAUAUUUCUAUGUAAAUUAUUGUAAACUUUUUCAAUGGUU`: “RBNS enrichment (R)” 0.443.
`GUGUGCACAUGUGUGGGUGUGUGUGCACAUGUUUGGAUGUGUGCACAUGUGCAUGCCUGUUUCUUUUUGCCAGGGAGACAACUGAAUUUGGGGCAUUUUUCUACAAACAC`: “RBNS enrichment (R)” 1.53.
`CAAUAAAGCCUGGUCUUUCUGUCUUUUCACAGAAAAUAAUAGUUCCUUUUAGGAUCUAGACAUACGGGUAAGACAUGACUCUCCCUGGAGCAGCUCUCUGCAGAACAAAA` — result for “RBNS enrichment (R)”: 0.288.
`UGAAAGGCACUUUUCAUUCCACUUUAACUUGAUUUUUUAAAUUCCCUUAUUGUCCCUUCCAAAAAAAAGAGAAUCAAAAUUUUACAAAGAAUCAAAGGAAUUCUAGAAAG` — result for “RBNS enrichment (R)”: 0.6.

Sample 5
Target: Fragile X messenger ribonucleoprotein 1, C-terminal low-complexity region (Fmr1, Mus musculus, UniProt P35922)
Method: RNA Bind-n-Seq
Molecule type: RNA
Medium: in vitro
Concentration: 200 nM
Setting: whole 134-nt RNA, ends assumed
Together with: 150 mM LiCl
Relative to: input library
Direction: higher = stronger binding
All molecules: 7-deaza-guanosine replaces G
Constant ends, left off below: GGGAGUUCUACAGUCCGACGAUC … UGGAAUUCUCGGGUGUCAAGG
`UAGAGACUUCAGAUGGAUUUUAAAAUUGAACACACUUGGGAUGGUUUUCCAGUGAAGCAUGAGCCCGUAUUUAUCAGGCUGAAUCCAGGU` gave a log2 enrichment of -2.35.
`UCCUGUGCUACACAUCGUAUGUACCGAAUCGGGUUUUUUGGGUUUUUUGGGUUUUUUGGGAAAGUAUUAUGUUACGCCGUUCGGAUCUGC` has a log2 enrichment of -0.569.
`CCUGUGCUACACAUCGUAUGUACCGAAUCGGGAAAAAAAGGGUUUUUUUGGGUUUUUGGGAAAGUAUUAUGUUACGCCGUUCGGAUCUGC` has a log2 enrichment of -2.89.
`UAACGUUAGAGGAGGAUCUGAUGGAUAUGGCAGUGGACGUGGAUUUGGGGAUGGCUAUAAUGGGUAUGGAGGAGGACCUGGAGGUGGCAA` gave a log2 enrichment of 0.0233.
For `AAGUCCUGUGCUACACAUCGUAUGUACCGAAUCGGGGUUUUGGGUUUUGGGUUUUGGAAAGUAUUAUGUUACGCCGUUCGGAUCUGCACU`, the log2 enrichment was -1.16.
`AGUCCUGUGCUACACAUCGUAUGUACCGAAUCGGGCCCCCGGGGCCCCCGGCCCCCGGAAAGUAUUAUGUUACGCCGUUCGGAUCUGCAC` gave a log2 enrichment of -1.84.

Repeated from above (sample 1):
`I105T` — result for “relative binding score”: -2.92%.
`R24A` — result for “relative binding score”: 9.57%.
For `S117E`, “relative binding score” read -14.2%.
For `S9W`, “relative binding score” read 26.3%.
For `V143I`, “relative binding score” read -4.8%.
